Published values of several laboratories.
Compare with care: the assays were run in different laboratories. ± gives the spread as reported.
Polyprotein P1234 nsP2: Polyprotein P1234, nsP2 (Chikungunya virus, UniProt Q8JUX6)
Chain of UniProt Q8JUX6 (whole entry, looked up): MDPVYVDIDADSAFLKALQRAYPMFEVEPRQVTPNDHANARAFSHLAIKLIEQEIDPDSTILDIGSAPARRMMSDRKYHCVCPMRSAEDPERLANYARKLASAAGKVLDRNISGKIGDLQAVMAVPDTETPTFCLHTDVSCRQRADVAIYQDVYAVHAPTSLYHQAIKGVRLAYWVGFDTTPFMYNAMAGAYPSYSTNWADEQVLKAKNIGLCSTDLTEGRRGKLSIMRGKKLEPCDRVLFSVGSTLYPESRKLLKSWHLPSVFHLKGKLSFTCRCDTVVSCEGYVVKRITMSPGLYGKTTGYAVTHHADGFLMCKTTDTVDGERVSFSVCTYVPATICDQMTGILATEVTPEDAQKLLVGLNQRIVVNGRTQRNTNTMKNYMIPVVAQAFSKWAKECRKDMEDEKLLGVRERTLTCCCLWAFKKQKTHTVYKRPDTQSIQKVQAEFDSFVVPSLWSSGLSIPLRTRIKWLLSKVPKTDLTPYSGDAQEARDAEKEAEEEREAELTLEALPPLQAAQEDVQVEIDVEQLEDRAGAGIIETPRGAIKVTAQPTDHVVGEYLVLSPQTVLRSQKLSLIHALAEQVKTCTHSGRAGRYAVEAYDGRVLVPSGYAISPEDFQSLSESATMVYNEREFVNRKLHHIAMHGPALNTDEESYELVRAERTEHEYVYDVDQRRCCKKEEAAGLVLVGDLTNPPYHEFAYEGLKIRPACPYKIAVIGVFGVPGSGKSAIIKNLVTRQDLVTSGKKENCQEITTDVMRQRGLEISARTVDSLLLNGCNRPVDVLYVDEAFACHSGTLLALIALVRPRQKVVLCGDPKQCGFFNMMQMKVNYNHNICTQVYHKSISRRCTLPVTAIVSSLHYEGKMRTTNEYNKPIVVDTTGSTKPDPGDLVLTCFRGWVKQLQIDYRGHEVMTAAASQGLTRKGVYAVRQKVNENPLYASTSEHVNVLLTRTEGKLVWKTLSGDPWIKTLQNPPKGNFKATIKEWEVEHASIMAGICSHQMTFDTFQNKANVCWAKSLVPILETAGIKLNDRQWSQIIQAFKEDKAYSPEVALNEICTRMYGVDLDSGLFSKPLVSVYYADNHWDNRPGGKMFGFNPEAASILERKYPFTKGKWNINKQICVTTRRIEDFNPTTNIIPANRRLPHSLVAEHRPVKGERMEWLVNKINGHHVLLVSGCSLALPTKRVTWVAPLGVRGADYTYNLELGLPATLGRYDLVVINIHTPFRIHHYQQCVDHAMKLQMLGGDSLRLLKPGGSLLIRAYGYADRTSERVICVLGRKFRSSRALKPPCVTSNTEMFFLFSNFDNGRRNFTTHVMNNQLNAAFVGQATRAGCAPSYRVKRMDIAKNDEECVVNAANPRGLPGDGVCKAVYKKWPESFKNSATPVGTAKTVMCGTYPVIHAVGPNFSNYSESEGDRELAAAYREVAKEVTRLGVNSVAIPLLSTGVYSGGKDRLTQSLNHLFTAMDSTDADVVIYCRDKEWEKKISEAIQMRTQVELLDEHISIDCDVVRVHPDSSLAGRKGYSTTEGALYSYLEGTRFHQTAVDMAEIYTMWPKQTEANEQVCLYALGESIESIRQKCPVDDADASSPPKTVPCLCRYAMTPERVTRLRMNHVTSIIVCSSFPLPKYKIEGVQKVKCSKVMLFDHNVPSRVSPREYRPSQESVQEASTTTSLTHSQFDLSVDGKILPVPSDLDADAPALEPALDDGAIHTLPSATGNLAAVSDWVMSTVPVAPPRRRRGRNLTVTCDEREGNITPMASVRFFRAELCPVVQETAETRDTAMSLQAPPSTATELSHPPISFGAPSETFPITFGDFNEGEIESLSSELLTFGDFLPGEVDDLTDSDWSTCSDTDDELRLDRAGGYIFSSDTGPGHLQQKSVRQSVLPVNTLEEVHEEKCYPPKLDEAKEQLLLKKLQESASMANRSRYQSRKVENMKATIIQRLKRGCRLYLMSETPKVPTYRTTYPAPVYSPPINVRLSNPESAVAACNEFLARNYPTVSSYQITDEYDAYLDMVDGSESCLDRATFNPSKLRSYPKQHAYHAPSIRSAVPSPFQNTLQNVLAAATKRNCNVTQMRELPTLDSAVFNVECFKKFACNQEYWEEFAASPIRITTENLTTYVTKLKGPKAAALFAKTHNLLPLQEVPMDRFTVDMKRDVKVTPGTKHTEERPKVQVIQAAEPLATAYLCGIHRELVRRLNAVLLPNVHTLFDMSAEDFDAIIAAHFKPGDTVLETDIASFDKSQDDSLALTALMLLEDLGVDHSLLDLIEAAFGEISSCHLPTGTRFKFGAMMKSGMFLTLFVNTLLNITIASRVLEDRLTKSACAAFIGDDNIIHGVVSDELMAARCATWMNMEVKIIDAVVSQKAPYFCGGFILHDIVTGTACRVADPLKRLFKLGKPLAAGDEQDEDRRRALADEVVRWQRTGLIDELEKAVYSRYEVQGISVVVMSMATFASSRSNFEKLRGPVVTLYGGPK
Ba71V-97 DNA complex: Ba71V-97, DNA complex (African swine fever virus, UniProt P42494)
Chain of UniProt P42494 (whole entry, looked up): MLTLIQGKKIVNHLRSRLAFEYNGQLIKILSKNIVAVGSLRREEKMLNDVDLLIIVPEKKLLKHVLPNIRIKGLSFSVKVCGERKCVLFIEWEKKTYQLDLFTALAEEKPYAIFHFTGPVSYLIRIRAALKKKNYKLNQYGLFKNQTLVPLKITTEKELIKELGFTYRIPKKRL
Grin1: Glutamate receptor ionotropic, NMDA 1 (Grin1, Rattus norvegicus, UniProt P35439)
Chain of UniProt P20309 (whole entry, looked up): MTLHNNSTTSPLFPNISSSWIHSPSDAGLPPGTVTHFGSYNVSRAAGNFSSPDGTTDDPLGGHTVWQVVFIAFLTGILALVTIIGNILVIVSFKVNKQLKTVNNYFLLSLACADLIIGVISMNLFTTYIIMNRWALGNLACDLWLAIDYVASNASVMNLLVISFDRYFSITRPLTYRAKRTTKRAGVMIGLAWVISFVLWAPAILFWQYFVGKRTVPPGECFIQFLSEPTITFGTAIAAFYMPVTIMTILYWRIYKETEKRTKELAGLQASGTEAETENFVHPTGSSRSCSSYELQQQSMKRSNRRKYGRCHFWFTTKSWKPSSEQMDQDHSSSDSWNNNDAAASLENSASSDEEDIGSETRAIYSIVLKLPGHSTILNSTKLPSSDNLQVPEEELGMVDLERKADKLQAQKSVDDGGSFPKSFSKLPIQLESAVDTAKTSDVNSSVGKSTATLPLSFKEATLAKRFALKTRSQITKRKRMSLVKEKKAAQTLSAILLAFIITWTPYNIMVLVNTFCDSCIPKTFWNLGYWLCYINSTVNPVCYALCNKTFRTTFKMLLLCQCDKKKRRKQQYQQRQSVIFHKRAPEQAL
Chain of UniProt P07510 (whole entry, looked up): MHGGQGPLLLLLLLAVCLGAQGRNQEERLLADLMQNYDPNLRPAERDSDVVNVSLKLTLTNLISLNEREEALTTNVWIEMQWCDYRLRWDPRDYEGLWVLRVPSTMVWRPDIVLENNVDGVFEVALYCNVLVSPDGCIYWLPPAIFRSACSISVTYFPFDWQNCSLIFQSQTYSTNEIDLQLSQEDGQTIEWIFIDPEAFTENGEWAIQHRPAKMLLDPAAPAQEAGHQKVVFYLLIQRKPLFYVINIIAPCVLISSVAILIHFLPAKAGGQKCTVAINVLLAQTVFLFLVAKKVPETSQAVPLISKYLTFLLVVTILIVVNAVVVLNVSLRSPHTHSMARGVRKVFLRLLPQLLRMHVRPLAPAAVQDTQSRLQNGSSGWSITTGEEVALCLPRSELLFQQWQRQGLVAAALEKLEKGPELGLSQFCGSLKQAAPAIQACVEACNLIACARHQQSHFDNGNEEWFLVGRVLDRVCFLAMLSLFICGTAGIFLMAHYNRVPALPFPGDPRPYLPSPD

Compound | target | assay | test system | conditions | inhibition
O=c1cc(-c2ccc(O)cc2)oc2c([C@@H]3OC[C@H](O)[C@H](O)[C@H]3O)c(O)c([C@@H]3O[C@H](CO)[C@@H](O)[C@H](O)[C@H]3O)c(O)c12 | Replicase polyprotein 1ab, main protease (rep, Severe acute respiratory syndrome-related coronavirus, UniProt P0C6X7) | enzyme activity, inhibitor | – | 8 µM | 68.4%
CC(C)(C(=O)N1CCC2(CC1)CC(CNS(C)(=O)=O)CCO2)c1ccccc1 (stereo not shown) | Polyprotein P1234 nsP2 | ATPase activity, ADP-Glo | – | 200 µM | 45%
O=S(=O)(O)c1ccc(N=Nc2cc(Oc3ncc(Cl)cc3Cl)ccc2O)cc1 | Ba71V-97 DNA complex | enzyme activity | – | 100 µM | > 50%
CSCC[C@H](NC(=O)[C@H](CCN)NC(=O)[C@@H](NC(=O)[C@H](Cc1c[nH]c2ccccc12)NC(=O)[C@H](CCCNC(=N)N)NC(=O)[C@@H](N)CCNc1ccc([N+](=O)[O-])cc1[N+](=O)[O-])[C@@H](C)O)C(=O)N[C@@H](CC(C)C)C(N)=O | Botulinum neurotoxin type B (Clostridium botulinum, UniProt P10844) | enzyme activity, inhibitor | – | concentration not given | 0%
O=C(O)c1ccc(Nc2cc(Nc3ccc(C(=O)O)cc3)c3c(=O)c(Nc4ccc(C(=O)O)cc4)c(-c4ccc(Nc5ccc(C(=O)O)cc5)c(Nc5ccc(C(=O)O)cc5)c4)oc3c2)cc1 | Spike glycoprotein, receptor-binding domain (MERS-CoV, UniProt K9N5Q8) | spike protein activity | – | concentration not given | inhibited
O=C(O)c1ccccc1N=NC(=NNc1cc(S(=O)(=O)O)ccc1O)c1ccccc1 | Ba71V-97 DNA complex | enzyme activity | – | 100 µM | > 50%
N#CC1=C(N)OC2=C(c3sc(N)c(C#N)c3CC2)C1c1ccccc1Cl (stereo not shown) | OPG113, with D12 (Vaccinia virus, UniProt P04298) | – | – | 50 µM | 93.4 ± 6.75%
CC(C)C[C@H](NC(=O)[C@@H](NC(=O)[C@@H](CCCNC(=N)N)NC(=O)[C@@H](CCCNC(=N)N)NC(=O)[C@@H](CCCNC(=N)N)NC(=O)[C@@H](CCCNC(=N)N)NC(=O)[C@@H](CCCNC(=N)N)NC(=O)[C@@H](CCCNC(=N)N)NC(=O)[C@@H](CCCNC(=N)N)NC(=O)[C@@H](CCCNC(=N)N)NC(=O)[C@H](N)CCCNC(=N)N)C(C)C)C(=O)N[C@@H](CCCNC(=N)N)C(=O)NO | Lethal factor (Bacillus anthracis, UniProt P15917) | enzyme activity, inhibitor | – | 0.02 µM | 93%
Cc1[nH]nc2c1N=C(c1ccccc1Cl)c1cnc(N3CCOCC3)cc1N2 | CHRNA1/CHRNG/CHRND (Homo sapiens, UniProt P02708+P07510+Q07001) | – | – | 10 µM | 9%
CS(C)(=O)=Nc1ccc(-c2ccc(-c3nc4cc(O[C@@H]5CO[C@H]6[C@@H]5OC[C@H]6O)[nH]c4cc3F)cc2)cc1 | strychnine-sensitive glycine receptor | binding | – | 10 µM | -11%
CS(=O)(=O)NCC1CCOC2(CCN(C(=O)Cc3ccccc3)CC2)C1 (stereo not shown) | Polyprotein P1234 nsP2 | ATPase activity, ADP-Glo | – | 200 µM | < 10%
CC[C@H](C)[C@H](NC(=O)[C@H](Cc1c[nH]cn1)NC(=O)[C@H](Cc1ccc(O)cc1)NC(=O)[C@H](CCCCN)NC(=O)[C@@H]1CSSC[C@@H]2NC(=O)[C@H](CCC(=O)O)NC(=O)[C@H](CC(=O)O)NC(=O)[C@H](C)NC(=O)CNC(=O)[C@H](Cc3ccc(O)cc3)NC(=O)[C@H](CCCCN)NC(=O)[C@@H]3CSSC[C@H](NC(=O)[C@H](C(C)C)NC(=O)[C@H](Cc4ccc(O)cc4)NC(=O)CNC(=O)[C@H](CCCCN)NC(=O)[C@H](CSSC[C@H](NC(=O)[C@@H](N)CO)C(=O)N[C@@H](CCCCN)C(=O)N[C@@H](C(C)C)C(=O)N[C@@H](Cc4c[nH]c5ccccc45)C(=O)N[C@@H](Cc4ccccc4)C(=O)N[C@@H](CC(N)=O)C(=O)N[C@@H](CCC(=O)O)C(=O)N3)NC2=O)C(=O)N[C@@H](CO)C(=O)N[C@@H](CCCCN)C(=O)N[C@@H](CCCNC(=N)N)C(=O)N[C@@H](CC(=O)O)C(=O)NCC(=O)N[C@@H](Cc2c[nH]c3ccccc23)C(=O)N1)C(=O)N[C@@H](CC(N)=O)C(=O)O | Sodium channel protein type 9 subunit alpha (SCN9A, Homo sapiens, UniProt Q15858) | ion current, inhibitor, patch clamp | HEK293 | 3.3 µM | 64.8%
O=C(NC1CCC(F)(F)CC1)C(c1cncnc1)N(C(=O)C(F)Cl)c1ccc(OC(F)(F)F)cc1 (stereo not shown) | Replicase polyprotein 1ab, main protease (rep, Severe acute respiratory syndrome coronavirus 2, UniProt P0DTD1) | enzyme activity, inhibitor | – | 8.333 µM | 101%
CC[C@H](C)[C@H](NC(=O)[C@H](CCCCN)NC(=O)[C@H](CCCCN)NC(=O)[C@H](CC(C)C)NC(=O)[C@H](Cc1c[nH]c2ccccc12)NC(=O)CN)C(=O)NCC(=O)N[C@@H](CCCCN)C(=O)N[C@@H](CCCCN)C(=O)N[C@H](C(=O)N[C@@H](CCC(=O)O)C(=O)N[C@@H](CCCNC(=N)N)C(=O)N[C@H](C(=O)NCC(=O)N[C@@H](CCC(N)=O)C(=O)N[C@@H](Cc1c[nH]cn1)C(=O)N[C@H](C(=O)N[C@@H](CCCNC(=N)N)C(=O)N[C@@H](CC(=O)O)C(=O)N[C@@H](C)C(=O)N[C@H](C(=O)N[C@H](C(=O)N[C@@H](CCC(N)=O)C(=O)N[C@H](C(=O)N[C@H](C(=O)NCC(=O)N[C@H](C(=O)N[C@@H](C)C(=O)N[C@@H](CCC(N)=O)C(=O)N[C@@H](CCC(N)=O)C(=O)N[C@@H](C)C(=O)N[C@@H](C)C(=O)N[C@@H](CC(N)=O)C(=O)N[C@H](C(=O)N[C@@H](C)C(=O)N[C@@H](C)C(=O)N[C@H](C(=O)N[C@@H](CC(C)C)C(=O)N[C@@H](CCCCN)C(N)=O)[C@@H](C)O)C(C)C)C(C)C)[C@@H](C)CC)[C@@H](C)O)[C@@H](C)CC)[C@@H](C)O)[C@@H](C)O)C(C)C)[C@@H](C)CC | Muscarinic acetylcholine receptor M3 (CHRM3, Homo sapiens, UniProt P20309) | antagonist, CEREP off-target panel | – | 10 µM | 31%
Cc1ccc(N2CC3CC(C2)N3C)cc1C(=O)NC1(c2ccc3c4c(cccc24)C(=O)N3C)CC1 | Replicase polyprotein 1a, papain-like protease (Severe acute respiratory syndrome coronavirus 2, UniProt P0DTC1) | enzyme activity | – | 20 µM | 100%
CCOC(=O)[C@](CC)(CCCSCCOCCOCCNC(=O)c1ccc(-c2c3ccc(=N)c(S(=O)(=O)O)c-3oc3c(S(=O)(=O)O)c(N)ccc23)c(C(=O)O)c1)NC(=O)c1ccc(C2CC2)c(Cc2ccc(F)cc2)n1 | Grin1 | ligand displacement, radioligand | – | 10 µM | 8%
O=C1c2sc(-c3ccc(N4CCC(CO)CC4)nc3F)nc2CCN1c1cccnc1 | Grin1 | ligand displacement, radioligand | – | 1 µM | -4%
C[C@H](NCc1ccc(-c2ccc(C(F)(F)F)cc2)cc1)C(N)=O | sodium channel site 2, rat | binding, radioligand binding | biochemical | 1 µM, added: [3H]batrachotoxinin 5.0 nM | 38%
C[C@H](NC(=O)[C@@H](c1cccnc1)N(C(=O)c1ccco1)c1ccc(-c2ccccc2)cc1)c1ccccc1 | Cathepsin B (CTSB, Homo sapiens, UniProt P07858) | enzyme activity, inhibitor | – | 20 µM | 55%
